Published values gathered from unrelated publications.
Lines come from different studies, so protocols differ. Converted amounts (≈) assume the structure as drawn.

SMILES | organism | assay | test system | setting | scale | quantity | value
O=C(NCc1cccc(O)c1)Nc1nc(-c2ccncc2)cs1 | mouse hepatitis virus | viral replication | nanoluciferase reporter | 1 µM |  | inhibition | 13%
CC(=O)NC[C@H]1CN(c2ccc(N3CCOCC3)c(F)c2)C(=O)O1 | Streptococcus pyogenes |  |  |  |  | MIC90 | 1 µg/mL (≈ 2.96 µM)
O=C(O)c1ccc2cc(-c3ccc(O)c(C45CC6CC(CC(C6)C4)C5)c3)ccc2c1 | human coronavirus OC43 | virus-induced cell killing | MRC-5 | screen |  | maximum inhibition | 30.1%
Cc1c([N+](=O)[O-])oc2ccc3ccccc3c12 | Mycobacteroides abscessus | REMA | ATCC 19977 |  |  | MIC90 | 4 µg/mL (≈ 17.6 µM)
CC[C@H](C)[C@H](NC(=O)[C@H](CCCNC(=N)N)NC(=O)[C@H](Cc1c[nH]c2ccccc12)NC(=O)[C@H](CCCNC(=N)N)NC(=O)[C@H](Cc1c[nH]c2ccccc12)NC(=O)[C@H](Cc1c[nH]c2ccccc12)NC(=O)[C@H](Cc1c[nH]c2ccccc12)NC(=O)[C@H](CCCNC(=N)N)NC(=O)[C@H](Cc1c[nH]c2ccccc12)NC(=O)[C@@H](N)CCCNC(=N)N)C(N)=O | Candida albicans | broth microdilution | 56452, RPMI 1640-MOPS | 48 h, 30 °C |  | MIC | 16 µM (≈ 27 µg/mL)
COc1ccc([C@@]23Oc4cc(OC)cc(OC)c4[C@@]24N=C(C)N[C@@]4(O)[C@H](C(=O)N(C)OC)[C@H]3c2ccccc2)cc1 | Hepatitis E virus | viral replication | HepG2 HEV-1 replicon, genotype 1 | 48 h |  | EC50 | 0.4 nM
C/C(=C\c1csc(C)n1)[C@@H]1C[C@@H]2O[C@]2(C)CCC[C@H](C)[C@H](O)[C@@H](C)C(=O)C(C)(C)[C@@H](O)CC(=O)O1 | human coronavirus OC43 | virus-induced cell killing | MRC-5 | maximum over 10 doses |  | maximum inhibition | 0%
COc1ccc(OC)c(N2C(=O)NC(=O)/C(=C\c3ccc([N+](=O)[O-])s3)C2=O)c1 | Mus musculus | gene silencing, high-content imaging | LDR reporter GFP cells | retest run 2 |  | maximal activity | 29%
O=C(/C=C/c1cccnc1)c1ccncc1 | human coronavirus OC43 | virus-induced cell killing | MRC-5 | screen |  | maximum inhibition | 4.3%
CC[C@H](C)[C@H](NC(=O)[C@H](CCCCN)NC(=O)[C@H](CCCCN)NC(=O)[C@H](Cc1ccccc1)NC(=O)[C@@H](NC(=O)[C@@H](NC(=O)[C@H](CCCNC(=N)N)NC(=O)[C@H](Cc1ccccc1)NC(=O)[C@@H](NC(=O)[C@H](CCCCN)NC(=O)[C@H](CCCCN)NC(=O)[C@@H](N)CCSC)[C@@H](C)CC)C(C)C)[C@@H](C)CC)C(=O)N[C@@H](CC(C)C)C(=O)N[C@@H](CCCCN)C(=O)N[C@@H](CCCNC(=N)N)C(=O)N[C@@H](CC(C)C)C(=O)N[C@H](C(=O)N[C@H](C(=O)O)C(C)C)[C@@H](C)CC | Staphylococcus aureus | broth microdilution | MRSA GU-1 |  |  | MBC | 8 µg/mL (≈ 3.52 µM)
CC[C@H](C)[C@H](NC(=O)[C@H](C)NC(=O)[C@H](CCCCN)NC(=O)[C@H](CC(C)C)NC(=O)[C@H](C)NC(=O)[C@@H](NC(=O)[C@H](Cc1c[nH]cn1)NC(=O)[C@H](CC(C)C)NC(=O)[C@@H](NC(=O)[C@@H](NC(=O)[C@H](CCCCN)NC(=O)[C@H](C)NC(=O)[C@H](C)NC(=O)[C@H](CO)NC(=O)[C@H](CCCCN)NC(=O)[C@H](Cc1ccccc1)NC(=O)[C@@H](NC(=O)[C@H](CCCCN)NC(=O)[C@H](CC(C)C)NC(=O)[C@H](Cc1ccccc1)NC(=O)[C@H](CO)NC(=O)[C@H](CCCCN)NC(=O)[C@H](Cc1c[nH]c2ccccc12)NC(=O)[C@H](CCCCN)NC(C)=O)[C@@H](C)O)[C@@H](C)O)C(C)C)[C@@H](C)O)C(=O)N[C@@H](CO)C(=O)N[C@@H](CO)C(N)=O | Klebsiella pneumoniae |  | ATCC 1705 |  |  | MBC50 | 16 µg/mL (≈ 5.45 µM)
CC(C)[C@H](NC(=O)[C@H](CCCNC(=N)N)NC(=O)[C@H](Cc1c[nH]c2ccccc12)NC(=O)[C@H](CCCNC(=N)N)NC(=O)[C@H](Cc1c[nH]c2ccccc12)NC(=O)[C@H](Cc1c[nH]c2ccccc12)NC(=O)[C@H](Cc1c[nH]c2ccccc12)NC(=O)[C@H](CCCNC(=N)N)NC(=O)[C@H](Cc1c[nH]c2ccccc12)NC(=O)[C@@H](N)CCCNC(=N)N)C(N)=O | Candida albicans | broth microdilution | 14936, RPMI 1640-MOPS | 48 h, 30 °C |  | MIC | 8 µM (≈ 13.4 µg/mL)
N#Cc1ccc2c(ccc3oc([N+](=O)[O-])cc32)c1 | Mycobacteroides abscessus | REMA | ATCC 19977 |  |  | MIC90 | > 32 µg/mL
CN(C)C(=O)Cn1cc(-c2ccc(-c3nnc4ccccn34)cc2)cn1 | mouse hepatitis virus | viral replication | nanoluciferase reporter | 1 µM |  | inhibition | 44%
O=C1NC(=O)N(CCc2ccc(F)cc2)C(=O)/C1=C/C=C/c1ccccc1 | Mus musculus | gene silencing, high-content imaging | LDR reporter GFP cells | retest run 1 |  | maximal activity | 49%
OC[C@H]1O[C@@H](n2ccc3c(SCc4ccc(Cl)c(Cl)c4)ncnc32)[C@H](O)[C@@H]1O | Toxoplasma gondii | [3H]uracil incorporation | human fibroblasts, RH wild type | 10 µM |  | survival | 51%
CC1(C)SC2C(NC(=O)C(NC(=O)C3=C(O)C4(CC4)NC3=O)c3ccccc3)C(=O)N2C1C(=O)O (centres unmarked) | Escherichia coli |  | ΔtolC JW5503-1 | 200 µM, added: 30 µg/mL 2,2'-bipyridyl |  | zone of inhibition | 17.7 mm
CNC(=O)c1ccc(Nc2ncc(C(F)(F)F)c(NCc3nccnc3N(C)S(C)(=O)=O)n2)cc1 | mouse hepatitis virus | viral replication | nanoluciferase reporter | 1 µM |  | inhibition | 19%
O=[N+]([O-])c1cc2cc3ccc4oc([N+](=O)[O-])cc4c3cc2o1 | Salmonella enterica | REMA |  |  |  | MIC90 | < 0.25 µg/mL
Cc1ccc(CSc2ncnc3c2ccn3[C@@H]2O[C@H](CO)[C@@H](O)[C@H]2O)cc1 | Toxoplasma gondii | [3H]uracil incorporation | human fibroblasts, RH wild type | 50 µM |  | survival | 0%
CS(=O)(=O)CCCn1c(Cn2c(=O)n(CC(F)(F)F)c3ccncc32)cc2cc(Cl)ccc21 | respiratory syncytial virus | RT-qPCR | hospitalized infants 1-24 months, nasal swab | oral, 1-9 mg/kg daily, day 7, all doses combined | baseline: placebo | LS mean difference vs placebo | 0.27 log10 copies/mL
Cn1c(=O)ccc2ccc(F)c(CCNC[C@H]3CN(c4cnc5c(n4)NC(=O)CO5)C(=O)O3)c21 | Serratia marcescens |  |  |  |  | MIC50 | 0.25 µg/mL (≈ 0.534 µM)
CCCCCCCCCCCc1c([N+](=O)[O-])oc2ccc3ccccc3c12 | Salmonella enterica | REMA |  |  |  | MIC90 | > 32 µg/mL
CCCCCCCCCC(=O)N[C@@H](Cc1c[nH]c2ccccc12)C(=O)N[C@H](CC(N)=O)C(=O)N[C@@H](CC(=O)O)C(=O)N[C@@H]1C(=O)NCC(=O)N[C@@H](CCCN)C(=O)N[C@@H](CC(=O)O)C(=O)N[C@H](C)C(=O)N[C@@H](CC(=O)O)C(=O)NCC(=O)N[C@H](CO)C(=O)N[C@@H]([C@H](C)CC(=O)O)C(=O)N[C@@H](CC(=O)c2ccccc2N)C(=O)O[C@@H]1C | Staphylococcus, coagulase-negative |  |  |  |  | MIC90 | 0.5 µg/mL (≈ 0.309 µM)

SMILES | organism | assay | test system | setting | scale | quantity | value
COc1ccc2c(ccc3oc([N+](=O)[O-])c(C)c32)c1 | Mycobacteroides abscessus | REMA | ATCC 19977 |  |  | MIC90 | > 32 µg/mL
OC[C@H]1O[C@@H](n2ccc3c(SCc4ccc(Cl)cc4Cl)ncnc32)[C@H](O)[C@@H]1O | Toxoplasma gondii | [3H]uracil incorporation | human fibroblasts, RH wild type | 10 µM |  | survival | 51.7%
Cc1csc(-c2nnc(Nc3ccc(Oc4ncccc4-c4ccnc(N)n4)cc3)c3ccccc23)c1 | human coronavirus OC43 | virus-induced cell killing | MRC-5 | screen |  | maximum inhibition | 3.87%
COC(=O)[C@@H]1[C@@H](c2ccccc2)[C@]2(c3ccc(OC)cc3)Oc3cc(OC)cc(OC)c3[C@@]23N=C(C)N[C@@]13O | Hepatitis E virus | viral replication | HepG2 HEV-3 replicon, genotype 3 wild boar isolate | 24 h |  | EC50 | 2.95 nM
COc1ccccc1[C@H](Cn1c(=O)n(C(C)(C)C(=O)O)c(=O)c2c(C)c(-c3ncco3)sc21)OC1CCOCC1 | human coronavirus OC43 | virus-induced cell killing | MRC-5 | screen |  | maximum inhibition | 12%
Cc1c2c(nn1C)CSCc1cc(n(C)n1)CSc1cc(c3ccccc3c1)OCCCc1c(C(=O)O)n(C)c3c-2c(Cl)ccc13 | Staphylococcus aureus | label-free proteomics, refers to: ald1 | SA113 | concentration not given | baseline: untreated | protein level fold change | 0.0616
Cc1cc(Nc2cc(N3CCN(C)CC3)nc(Sc3ccc(NC(=O)C4CC4)cc3)n2)[nH]n1 | human coronavirus OC43 | virus-induced cell killing | MRC-5 | maximum over 10 doses |  | maximum inhibition | 0%
CO/N=C(\C(=O)N[C@@H]1C(=O)N2C(C(=O)O)=C(CSC(=O)c3ccco3)CS[C@H]12)c1csc(N)n1 | Staphylococcus aureus |  | CAAS-2019-CAAS-2019-13 clinical drug-resistant isolate, PBS |  |  | MBC | 16 µg/mL
S=C(NCc1ccc2c(c1)OCO2)N1CCN(c2ncnc3c2oc2ccccc23)CC1 | human coronavirus OC43 | virus-induced cell killing | MRC-5 | screen |  | maximum inhibition | 2.96%
c1ccc2c(c1)[I+]c1ccccc1-2 | Toxoplasma gondii |  |  | tachyzoites |  | EC90 | 0.284 µM
CNC[C@H](O)[C@@H](O)[C@H](O)[C@H](O)CO.[O]=[Sb](=[O])[OH] | Leishmania major |  | BALB/c mouse | topical, dose not given, 28 days, unit not given | baseline: PBS | lesion size difference | 9.77
C[C@H]1CCC/C=C/[C@@H]2C[C@H](O)C[C@H]2[C@H](O)/C=C/C(=O)O1 | Toxoplasma gondii | bradyzoite growth |  | glutamine-induced bradyzoites, glucose-free medium |  | EC50 | 160 nM
Nc1ncnc2c1ncn2[C@@H]1O[C@@H]2COP(=O)(O)O[C@H]3[C@@H](O)[C@H](n4cnc5c(=O)[nH]cnc54)O[C@@H]3COP(=O)(O)O[C@H]2[C@H]1O | Zika virus | downregulated Reactome pathway, RNA sequencing, refers to: Non-integrin membrane-ECM interactions (R-HSA-3000171) | HFF-1 |  | baseline: ZIKV-infected untreated | fold enrichment | 10.9
CN([C@@H](Cc1ccc(OS(=O)(=O)c2cccc3cnccc23)cc1)C(=O)N1CCN(c2ccccc2)CC1)S(=O)(=O)c1cccc2cnccc12 | mouse hepatitis virus | viral replication | nanoluciferase reporter | 1 µM |  | inhibition | 28%
OC[C@H]1O[C@@H](n2ccc3c(O)ncnc32)[C@H](O)[C@@H]1O | Toxoplasma gondii | [3H]uracil incorporation | human fibroblasts, adenosine kinase-deficient | 25 µM |  | parasite survival | 100%
Fc1ccc(C(OCCN2CCN(CCCc3ccccc3)CC2)c2ccc(F)cc2)cc1 | Toxoplasma gondii | parasite growth, luciferase reporter | HFF, tachyzoite | 72 h |  | EC90 | 44.9 µM
OC[C@H]1O[C@@H](n2ccc3c(SCc4ccc(F)cc4F)ncnc32)[C@H](O)[C@@H]1O | Toxoplasma gondii | [3H]uracil incorporation | human fibroblasts, RH wild type | 10 µM |  | survival | 17.9%
CCCCc1c([N+](=O)[O-])oc2ccc3ccccc3c12 | Salmonella enterica | REMA |  |  |  | MIC90 | 0.5 µg/mL (≈ 1.86 µM)
CN1C(=O)[C@@H](N2CCc3c(nn(Cc4ccccc4)c3Br)C2=O)COc2ccccc21 | mouse hepatitis virus | viral replication | nanoluciferase reporter | 1 µM |  | inhibition | 44%
COC(=O)N[C@H](C(=O)N1CCC[C@H]1c1ncc(-c2ccc(-c3ccc(-c4cnc([C@@H]5CCCN5C(=O)[C@@H](NC(=O)OC)C(C)C)[nH]4)cc3)cc2)[nH]1)C(C)C | Hepatitis C virus |  | replicon cells, genotype 1a | 90% effect level, added: NS3 inhibitor, ratio 2.5:1 |  | combination index | 1.09
N#CCNC(=O)c1ccc(-c2ccnc(Nc3ccc(N4CCOCC4)cc3)n2)cc1 | human coronavirus OC43 | virus-induced cell killing | MRC-5 | maximum over 10 doses |  | maximum inhibition | 0%
CCn1c(=O)c(-c2ccc(Cl)cc2Cl)cc2cnc(Nc3ccc(N4CCNCC4)c(F)c3)nc21 | mouse hepatitis virus | viral replication | nanoluciferase reporter | 1 µM |  | inhibition | 47%
C[C@@H]1C[C@@H]([C@H](O)CC2CC(=O)NC(=O)C2)C(=O)[C@@H](C)C1 | Mus musculus | gene silencing, high-content imaging | LDR reporter GFP cells | 30 h, retest run 2 |  | Emax | 72%

Some of these lines once more:
SMILES | organism | assay | test system | setting | scale | quantity | value
CC1(C)SC2C(NC(=O)C(NC(=O)C3=C(O)C4(CC4)NC3=O)c3ccccc3)C(=O)N2C1C(=O)O (centres unmarked) | Escherichia coli |  | ΔtolC JW5503-1 | 200 µM, added: 30 µg/mL 2,2'-bipyridyl |  | zone of inhibition | 17.7 mm
CNC(=O)c1ccc(Nc2ncc(C(F)(F)F)c(NCc3nccnc3N(C)S(C)(=O)=O)n2)cc1 | mouse hepatitis virus | viral replication | nanoluciferase reporter | 1 µM |  | inhibition | 19%
O=[N+]([O-])c1cc2cc3ccc4oc([N+](=O)[O-])cc4c3cc2o1 | Salmonella enterica | REMA |  |  |  | MIC90 | < 0.25 µg/mL
Cc1ccc(CSc2ncnc3c2ccn3[C@@H]2O[C@H](CO)[C@@H](O)[C@H]2O)cc1 | Toxoplasma gondii | [3H]uracil incorporation | human fibroblasts, RH wild type | 50 µM |  | survival | 0%
